Literature values that unrelated publications cite.
Numbered parts are unrelated; values within a part may stem from several laboratories. ± gives the spread as reported.

Sample 1 — organism: Cryptosporidium parvum; technique: high-throughput screen; concentration: concentration not given
SMILES | activity
CN1CCN(C2=Nc3ccccc3Oc3ccc(Cl)cc32)CC1 | inactive
COc1cc([C@@H]2c3cc4c(cc3[C@@H](O[C@@H]3O[C@@H]5CO[C@@H](C)O[C@H]5[C@H](O)[C@H]3O)[C@H]3COC(=O)[C@H]23)OCO4)cc(OC)c1O | inactive
CC(CN1c2ccccc2Sc2ccccc21)N(C)C.Cl (stereo not drawn) | inactive

Single results of other studies
Structure (SMILES) | target or system | observed | technique | measured | notes | endpoint | result
O=C(NCc1ncc(C(F)(F)F)cc1Cl)c1ccc2c(c1)C1(CCS(=O)(=O)CC1)[C@@H](C1CC1)N2S(=O)(=O)c1ccc(F)cc1 | GNRHR | cellular activity | – | – | – | IC50 | 2400 nM
CC(=O)Oc1ccccc1C(=O)Nc1ncc([N+](=O)[O-])s1 | Cryptosporidium parvum | parasite growth | – | – | – | EC50 | 3800 nM
Cn1cncc1[C@](O)(COc1ccc(C#N)cc1-c1ccc(OC(F)(F)F)cc1)c1ccc(C#N)cc1 | FNTB | biochemical activity | – | – | – | IC50 | 0.05 nM
Cc1c(C#N)cccc1[C@@H](C)Nc1nnc(C)c2cnc(N3CCOCC3)cc12 | SNU-C4 | ERK phosphorylation | In-Cell Western | phospho-ERK | – | IC50 | 20.1 ± 3.9 nM
C[C@H](c1ccnc(Nc2nc3ccc(-c4cc(N(C)C)ncn4)cc3[nH]2)c1)N1CCN(C(=O)CC(F)(F)F)CC1 | TBK1 | – | – | – | low ATP | IC50 | 2 nM
CC(=O)Nc1nc(CN2CCC[C@H](Cc3cc(C)nc(C)c3)C2)cs1 | OGA (human) | cellular activity | – | – | – | IC50 | > 1000 nM

A few entries again (sample 1):
SMILES | activity
CN1CCN(C2=Nc3ccccc3Oc3ccc(Cl)cc32)CC1 | inactive
